Measurements from different studies.
Each line is one published result; not all experiments were run side by side. Several values in a cell are separate wells, animals, samples, runs or records. ± marks the error that the study gave.

Structure (SMILES)	organism	test	system	setting	IC50
CC[C@H](C)[C@H](NC(=O)CNC(=O)[C@H](CO)NC(=O)[C@H](CC(C)C)NC(=O)[C@@H](N)Cc1ccccc1)C(=O)N[C@H](C(=O)NCC(=O)N[C@@H](CCSC)C(=O)N[C@@H](CC(C)C)C(=O)NCC(=O)N[C@@H](CCCCN)C(=O)N[C@@H](CC(C)C)C(=O)N[C@@H](Cc1ccccc1)C(N)=O)C(C)C	Leishmania mexicana	intracellular amastigote growth, Giemsa staining	infected macrophages	48 h	6.7 µM and 6.73 µM
CC=C1NC(=O)[C@H](Cc2ccccc2)NC(=O)[C@H](C(C)C)NC(=O)[C@H](Cc2c[nH]cn2)NC(=O)[C@H](CCC(N)=O)NC(=O)[C@H](Cc2c[nH]c3ccccc23)NC(=O)C2CSC[C@@H](C(=O)N[C@@H](CO)C(=O)O)NC(=O)[C@H](CSCC3NC(=O)[C@H]([C@@H](C)CC)NC(=O)C(NC(=O)[C@H](Cc4c[nH]cn4)NC(=O)[C@@H](NC(=O)[C@@H](NC(=O)CNC(=O)[C@H](CO)NC(=O)CNC(=O)CNC(=O)[C@@H](N)CCCCN)C(C)C)[C@@H](C)CC)C(C)SC[C@H](NC(=O)[C@H](CCC(=O)O)NC(=O)[C@H](Cc4c[nH]cn4)NC3=O)C(=O)N[C@@H](CCCNC(=N)N)C(=O)N[C@@H](CCSC)C(=O)N[C@@H](CC(N)=O)C(=O)N2)NC1=O (stereo partly shown)	Lactococcus lactis	cell growth	HP	–	0.428 ± 0.021 µM
CC(=O)[O-].CN(C)C=O.F[P-](F)(F)(F)(F)F.[Co+2].c1ccc(CN2CCN3CCCN(CC2)CCN(Cc2ccccc2)CC3)cc1	Leishmania donovani	parasite growth, resazurin	–	72 h, amastigote	> 10 µM
O=C(C1CCN(c2nnnn2-c2ccccc2)CC1)N1CCCc2ccccc21	Plasmodium falciparum	–	erythrocytes, Dd2, dhodh variant	–	0.699 µM
N=C(N)NCCC[C@H](NC(=O)[C@H](CCCNC(=N)N)NC(=O)[C@H](CCCNC(=N)N)NC(=O)[C@H](CCC(N)=O)NC(=O)[C@H](CCCNC(=N)N)NC(=O)[C@H](CCCNC(=N)N)NC(=O)[C@H](CCCCN)NC(=O)[C@H](CCCCN)NC(=O)[C@H](CCCNC(=N)N)NC(=O)CNC(=O)[C@H](Cc1ccc(O)cc1)NC(=O)CNC(=O)CNC(=O)[C@@H]1CCCCNC(=O)CCC(=O)N[C@@H](CCCNC(=N)N)C(=O)N[C@@H](CC(N)=O)C(=O)NCC(=O)N[C@@H](CCC(N)=O)C(=O)N[C@@H](CS)C(=O)N[C@@H](CCC(N)=O)C(=O)N[C@@H](CCCNC(=N)N)C(=O)N[C@@H](CCCCN)C(=O)N1)C(N)=O	Leishmania donovani	parasite growth, resazurin	–	48 h, promastigote	~6 µM
[Cl-].[Cl-].[Ni+2].c1ccc(CN2CCNCCN(Cc3ccccc3)CCNCC2)cc1	Leishmania donovani	–	THP-1-derived macrophages, intracellular amastigotes	–	> 20 µM
CC1N=C(CCCCCCCCCCC2=CC(CCCCCCCCCCC3=NC(C)C(O)CC3)C3CCCN3C2)CCC1O (stereo not shown)	Leishmania donovani	Alamar Blue	promastigotes	72 h, 26 °C	0.83 ± 0.11 µg/mL
COC(=O)C1=CO[C@@H](C)[C@@H]2Cn3ccc4c5ccccc5nc-4c3C[C@H]12	Plasmodium falciparum	[3H]hypoxanthine incorporation	C2B atovaquone-resistant	48 h	1.5 µM
CC(=O)[O-].CN1CCN2CCN(CC1)CCN(Cc1ccccc1)CC2.F[P-](F)(F)(F)(F)F.[Cu+2]	Leishmania donovani	parasite growth, resazurin	–	72 h, amastigote	> 20 µM
N[C@H]1C[C@@H]1c1ccccc1 (racemic)	human alphaherpesvirus 1	viral replication	HeLa	–	~1000 µM
CC(C)[C@@H]1NC(=O)[C@H](CCCNC(=N)N)NC(=O)[C@H](Cc2ccc3ccccc3c2)NC(=O)[C@H](CCCNC(=N)N)NC(=O)CSC[C@@H](C(N)=O)NC(=O)[C@H](CCCNC(=N)N)NC(=O)[C@H](Cc2ccc(O)cc2)NC(=O)[C@H](CCCNC(=N)N)NC(=O)[C@H](Cc2c[nH]cn2)NC(=O)[C@H](CC2CCCCC2)NC(=O)[C@H]2CCCN2C1=O	hepatitis C virus	viral replication, Renilla luciferase reporter	Huh7.5	48 h	0.000345 µM
F[P-](F)(F)(F)(F)F.F[P-](F)(F)(F)(F)F.[Cu+2].c1ccc(CN2CCCNCCN(Cc3ccccc3)CCCNCC2)cc1	Leishmania donovani	parasite growth, resazurin	–	72 h, amastigote	> 15 µM
Cc1cccc2c1NC(=O)C2=Cc1ccc(-c2cccc(C(=O)N3CCCN(C)CC3)c2)o1 (mixture of isomers)	Trichuris muris	adult worm motility	–	24 h	17.2 µM
CCCCCCCCCCCCCCC[C@@H](O)[C@H](CO)NC(=O)NCCCC[C@H](NC(=O)[C@H](CC(N)=O)NC(=O)[C@H](CCCCN)NC(=O)[C@H](CCC(=O)O)NC(=O)[C@H](CCC(N)=O)NC(=O)[C@H](CCC(N)=O)NC(=O)[C@H](CC(N)=O)NC(=O)[C@H](CCC(N)=O)NC(=O)[C@H](CO)NC(=O)[C@H](CCC(=O)O)NC(=O)[C@H](CCC(=O)O)NC(=O)[C@@H](NC(=O)[C@H](CC(C)C)NC(=O)[C@H](CO)NC(=O)[C@H](Cc1c[nH]cn1)NC(=O)[C@@H](NC(=O)[C@H](CC(C)C)NC(=O)[C@H](CO)NC(=O)[C@@H](NC(=O)[C@@H](N)Cc1ccc(O)cc1)[C@@H](C)O)[C@@H](C)CC)[C@@H](C)CC)C(N)=O	HIV-1 HXB2	viral infectivity, luciferase reporter	TZM-bl	–	0.35 ± 0.06 µM
CC(C)[C@@H]1NC(=O)[C@H](CCCNC(=N)N)NC(=O)[C@H](Cc2ccc3ccccc3c2)NC(=O)[C@H](CCCNC(=N)N)NC(=O)[C@@H](N)CSSC[C@@H](C(N)=O)NC(=O)[C@H](CCCNC(=N)N)NC(=O)[C@H](Cc2ccc(O)cc2)NC(=O)[C@H](CCCNC(=N)N)NC(=O)[C@H](Cc2c[nH]cn2)NC(=O)[C@H](CC2CCCCC2)NC(=O)[C@H]2CCCN2C1=O	hepatitis C virus	viral replication, Renilla luciferase reporter	Huh7.5	48 h	0.000192 µM
CC(=O)[O-].F[P-](F)(F)(F)(F)F.[Cu+2].c1ccc(CN2CCN3CCN(CC2)CCN(Cc2ccccc2)CC3)cc1	Leishmania donovani	parasite growth, resazurin	–	72 h, amastigote	> 20 µM

Repeated from above:
Structure (SMILES)	organism	test	system	setting	IC50
F[P-](F)(F)(F)(F)F.F[P-](F)(F)(F)(F)F.[Cu+2].c1ccc(CN2CCCNCCN(Cc3ccccc3)CCCNCC2)cc1	Leishmania donovani	parasite growth, resazurin	–	72 h, amastigote	> 15 µM
Cc1cccc2c1NC(=O)C2=Cc1ccc(-c2cccc(C(=O)N3CCCN(C)CC3)c2)o1 (mixture of isomers)	Trichuris muris	adult worm motility	–	24 h	17.2 µM
CCCCCCCCCCCCCCC[C@@H](O)[C@H](CO)NC(=O)NCCCC[C@H](NC(=O)[C@H](CC(N)=O)NC(=O)[C@H](CCCCN)NC(=O)[C@H](CCC(=O)O)NC(=O)[C@H](CCC(N)=O)NC(=O)[C@H](CCC(N)=O)NC(=O)[C@H](CC(N)=O)NC(=O)[C@H](CCC(N)=O)NC(=O)[C@H](CO)NC(=O)[C@H](CCC(=O)O)NC(=O)[C@H](CCC(=O)O)NC(=O)[C@@H](NC(=O)[C@H](CC(C)C)NC(=O)[C@H](CO)NC(=O)[C@H](Cc1c[nH]cn1)NC(=O)[C@@H](NC(=O)[C@H](CC(C)C)NC(=O)[C@H](CO)NC(=O)[C@@H](NC(=O)[C@@H](N)Cc1ccc(O)cc1)[C@@H](C)O)[C@@H](C)CC)[C@@H](C)CC)C(N)=O	HIV-1 HXB2	viral infectivity, luciferase reporter	TZM-bl	–	0.35 ± 0.06 µM
